# Assay results pooled from the literature.
# Each line is one published result; not all experiments were run side by side. Numbers after ± are the reported error.
SMILES,test,test system,setting,scale,quantity,result
CO[C@H]1/C=C/O[C@@]2(C)Oc3c(C)c(O)c4c(c3C2=O)C2=NC3(CCN(CC(C)C)CC3)NC2=C(NC(=O)/C(C)=C\C=C\[C@H](C)[C@H](O)[C@@H](C)[C@@H](O)[C@@H](C)[C@H](OC(C)=O)[C@@H]1C)C4=O,,"CD-1 mouse, plasma","oral, dose not given, efficacy dose",,fAUC/MIC ratio,0.474
O=C(Cc1ccc2ccccc2c1)Nc1cc(C2CCC2)[nH]n1,,extracted mouse plasma,"0.5 ng/mL, 24 h, 4 °C, autosampler stability",,accuracy,98.7%
CN1CC(=O)N2[C@H](c3ccc4c(c3)OCO4)c3[nH]c4ccccc4c3C[C@@H]2C1=O,,human plasma,"1.50 ng/mL, freeze-thaw at -70 °C",,accuracy,97.8%
CCN1CCN(Cc2ccc(Nc3ncc(F)c(-c4cc(F)c5nc(C)n(C(C)C)c5c4)n3)nc2)CC1,,"healthy human, fasted, plasma","oral, 200 mg, capsule",,Vss/F,1930 L
COc1ccc2[nH]c([S@+]([O-])Cc3ncc(C)c(OC)c3C)nc2c1,,"human male, dried plasma spots","dose not given, mean, added: fluvoxamine and voriconazole",baseline: inhibition over control,AUC fold change,8.9 fold
COc1cccc(OC)c1-c1cc(C(=O)NC2(C(=O)O)C3CC4CC(C3)CC2C4)nn1-c1ccc(C(=O)N(C)CCCN(C)CCCN(C)C(=O)CN2CCN(CC(=O)[O-])CCN(CC(=O)[O-])CCN(CC(=O)[O-])CC2)cc1C(C)C.[177Lu+3] (stereo not drawn),,"mouse, HT-29 xenograft","168 h post injection, biodistribution",baseline: tumour over blood uptake,tumour-to-blood ratio,4.02
O=C(O)CCC(=O)O.[2H]C([2H])([2H])Oc1cc(C)c2[nH]ccc2c1CN1CC[C@@H](C2CC2)C[C@H]1c1ccc(C(=O)O)cc1,,healthy Chinese subjects,"oral, 50 mg, single ascending dose",,subjects with elevated uric acid,0%
Cc1cc(C)c(CNC(=O)c2cc(Cl)c3c(c2C)O[C@@](C)([C@H]2CC[C@H](N(C)C)CC2)O3)c(=O)[nH]1,,relapsed/refractory NHL patients,"oral, 200 mg once daily, onset after cycle 1 day 1",,grade ≥3 adverse event Hyponatremia,4.2%
CN(C(=O)n1cnc(-c2ccc[n+]([O-])c2)c1)[C@H]1CC[C@H](O)CC1,,"Wistar rat, pons","oral, 10 mg/kg of BIA 10-2474, 4 h, single dose",,concentration,10.3 ± 0.4 ng/g
O=C(Nc1nc2cccc(-c3ccc(CN4CCS(=O)(=O)CC4)cc3)n2n1)C1CC1,refers to: vertigo,rheumatoid arthritis patients,"oral, 30 mg once daily, 4 weeks, any relatedness",,treatment-emergent adverse events,0%
COc1cc(Nc2ncc3c(n2)-c2ccc(Cl)cc2C(c2c(F)cccc2OC)=NC3)ccc1C(=O)O,"refers to: Constipation, grade 1","cancer patients, phase 1/2","oral, dose not given, added: pembrolizumab",,patients with adverse event,13%
CCc1cc(C(=O)NC)c2nccc(N3CCc4c(cc(Cn5ccnc5)cc4-c4cn(C)nc4C(F)(F)F)C3=O)c2c1,,Sprague Dawley rats,"oral, 100 mg/kg twice daily, 7 days",baseline: vehicle,reticulocyte percentage change,-39.5%
CN[C@@H]1COc2c(S(=O)(=O)NC(=O)Nc3c4c(cc5c3CCC5)CCC4)cnn2C1,,"human, urine","oral, 450 mg, 0-48 h",,amount excreted in urine (0-48 h),81 mg
CNC(=O)c1ccc(-c2cnc3ncc(Cc4ccc5ncccc5c4)n3n2)cc1F,,Japanese patients,"oral, 400 mg twice daily, any grade",,Pneumonitis patients,2%
N=C(N)NCCNC(=O)C1(Nc2ccccc2)CCN(Cc2ccccc2)CC1,,"male Sprague-Dawley rats, plasma","oral, 50 mg/kg",,apparent volume of distribution,0.2 L
CN(C)C(=N)N=C(N)N,refers to: arthropod bite,healthy men,"oral, dose not given, 8 days, treatment-emergent, crossover trial",,subjects with adverse event,4.5%
COc1cc(C(=O)NC2CCN(C)CC2)c(F)cc1Nc1ncc(C(F)(F)F)c(Oc2cccc3c2C(=O)N(C)C3)n1,,"human patients, plasma","oral, 100 mg single dose, geometric mean",,dose-normalised Cmax,13.2 nmol/L per mg
CCn1cc(C(=O)N2CCOCC2)c(=O)c2cc(NC3Cc4ccccc4C3)cnc21,,"human, fasted","oral tablet, 300 mg single dose, arithmetic mean",,AUC(0-inf),11200 ng·h/mL
CC(C)(Sc1ccncc1-c1ccc(C#N)c2ccccc12)C(=O)O,,"human, urine","oral, 5 mg, added: febuxostat 20 mg",,amount excreted in urine (0-24 h),69.3 µg
CCO[C@H]1CCN(Cc2c(OC)cc(C)c3[nH]ccc23)[C@H](c2ccc(C(=O)O)cc2)C1,,"PNH patients, active haemolysis","oral, 100 mg, treatment",,incidence alkaline phosphatase increase,0%
CC(C)[C@H](C(=O)Nc1ccc(C(=O)NO)cc1)c1ccccc1,,whole blood,"1000 ng/mL, 1 h, 4 °C, stability on ice",,accuracy,112%
O=C(O)C1=CO[C@@H](O[C@@H]2O[C@H](CO)[C@@H](O)[C@H](O)[C@H]2O)[C@@H]2C(CO)=CC[C@H]12,three freeze-thaw cycles,rat plasma,"200 ng/mL, -70 °C freeze",,accuracy,92.8%
CNC(=O)c1ccc(-c2cnc3ncc(Cc4ccc5ncccc5c4)n3n2)cc1F,refers to: Headache,cancer patients,"oral, 600 mg twice daily, all expansion cohorts, grade 3-4",,patients with adverse event,0%
CNCCOC12CC3(C)CC(C)(CC(Cn4ncc(-c5ccc(N6CCc7cccc(C(=O)Nc8nc9ccccc9s8)c7C6)nc5C(=O)O)c4C)(C3)C1)C2,,anaesthetised male beagle dogs,"intravenous bolus, 0.03 mg/kg, 5 min",,plasma concentration,93 ± 21 ng/mL
Cn1cc([C@H]2C[C@H]3CSC(N)=N[C@@]3(c3ccc(F)cc3F)CO2)cn1,,mouse,"subcutaneous, 3 mg/kg, 6 h",,CSF concentration,not detected
c1ccc2c(c1)ccc1ccccc12,,polyethylene-water partitioning,PAH compilation,,literature range of log K,4.04 to 4.78 log units
C[C@@H](Nc1cc(F)cc(F)c1)c1cc(C(=O)N(C)C)cc2c(=O)cc(N3CCOCC3)oc12,refers to: Hypersensitivity,advanced solid tumour patients,"oral, dose not given, dose finding",,related serious adverse events,1.6%
C=CC(=O)Nc1cc(Nc2nccc(-c3cn(C4CC4)c4ccccc34)n2)c(OC)cc1N(C)CCN(C)C,,"BALB/c nude mouse, LU0387 xenograft, serum","oral, 40 mg/kg",,ALP activity,100 ± 8.66 U/L
N#Cc1ccc2c(c1)[C@H]1CCCN(C(=O)c3ccc4[nH]cnc4c3)[C@H]1C2,,"human, plasma","80 mg once daily, day 2",,pre-dose plasma concentration,1210 nmol/L
CO[C@H]1C[C@@H]2CC[C@@H](C)[C@@](O)(O2)C(=O)C(=O)N2CCCC[C@H]2C(=O)O[C@H]([C@H](C)C[C@@H]2CC[C@@H](O)[C@H](OC)C2)CC(=O)[C@H](C)/C=C(\C)[C@@H](O)[C@@H](OC)C(=O)[C@H](C)C[C@H](C)/C=C/C=C/C=C/1C,,healthy adult horses,"oral, 0.06 mg/kg, 24 h",,heart rate,35.5 ± 2.4 beats/min
FC(F)(F)c1ccc(CNc2ccc(Cc3c[nH]c4ncc(Cl)cc34)cn2)cn1,refers to: periorbital oedema,"human, advanced solid tumours, all patients","oral, 1000 mg/day, any grade",,treatment-related adverse events,20%
Cc1c(Cl)c(C)[n+]([O-])c(Cl)c1-c1noc(-c2cc(O)c(O)c([N+](=O)[O-])c2)n1,refers to: Belching,healthy Caucasian subjects,"oral, 25 mg, 4 days",,adverse drug reaction incidence,0%
N#Cc1ccc2c(c1)[C@H]1CCCN(C(=O)c3ccc4[nH]cnc4c3)[C@H]1C2,,human,"10 mg, day 7",,minimum ACTH level,1.2 pmol/L
C[C@@H]1CCO[C@H]2Cn3cc(C(=O)NCc4ccc(F)cc4F)c(=O)c(O)c3C(=O)N12,"population PK, post-hoc","children aged 0.25 to 5 years, 6 to <10 kg, plasma","oral, 15 mg dispersible tablet, steady state, geometric mean",,AUC(0-24),60100 ng·h/mL
COC(=O)C1=CO[C@@H](O[C@@H]2O[C@H](CO)[C@@H](O)[C@H](O)[C@H]2O)[C@@H]2C(CO)=CC[C@H]12,post-procedure stability,rat plasma,"200 ng/mL, 3 h, room temperature",,accuracy,117%
Cc1c(-c2ccc(N3CCc4cccc(C(=O)Nc5nc6ccccc6s5)c4C3)nc2C(=O)O)cnn1CC12CC3(C)CC(C)(C1)CC(OCCNCC[C@H](O)CO)(C3)C2,,anaesthetised male beagle dogs,"intravenous infusion, 0.3 mg/kg/min, 30 min",baseline: vehicle,cardiac output change,-20%
NC(=O)c1cc(Oc2ccc(NC(=O)Nc3ccc(Cl)c(C(F)(F)F)c3)c(F)c2)cc[n+]1[O-],long-term stability,mouse plasma,"25 ng/mL, 6 months, -80 °C",,accuracy,109%
CC(F)(F)c1nc2nc(CO)cc(Nc3ccc(S(F)(F)(F)(F)F)cc3)n2n1,LC-MS/MS,"malaria patients, plasma","oral, 800 mg of parent drug",,"AUC(0-inf), metabolite",214000 ng·h/mL
C=CC(=O)NC1CCN(c2ncc3ncnc(Nc4ccc(Oc5ccc6c(c5)ncn6C)c(C)c4)c3n2)CC1,refers to: back pain,human male,"oral, dose not given, CTCAE on-treatment AEs",,adverse events incidence,0%

# Some of these lines once more:
SMILES,test,test system,setting,scale,quantity,result
CN[C@@H]1COc2c(S(=O)(=O)NC(=O)Nc3c4c(cc5c3CCC5)CCC4)cnn2C1,,"human, urine","oral, 450 mg, 0-48 h",,amount excreted in urine (0-48 h),81 mg
Cc1c(-c2ccc(N3CCc4cccc(C(=O)Nc5nc6ccccc6s5)c4C3)nc2C(=O)O)cnn1CC12CC3(C)CC(C)(C1)CC(OCCNCC[C@H](O)CO)(C3)C2,,anaesthetised male beagle dogs,"intravenous infusion, 0.3 mg/kg/min, 30 min",baseline: vehicle,cardiac output change,-20%
CNC(=O)c1ccc(-c2cnc3ncc(Cc4ccc5ncccc5c4)n3n2)cc1F,,Japanese patients,"oral, 400 mg twice daily, any grade",,Pneumonitis patients,2%
CO[C@H]1/C=C/O[C@@]2(C)Oc3c(C)c(O)c4c(c3C2=O)C2=NC3(CCN(CC(C)C)CC3)NC2=C(NC(=O)/C(C)=C\C=C\[C@H](C)[C@H](O)[C@@H](C)[C@@H](O)[C@@H](C)[C@H](OC(C)=O)[C@@H]1C)C4=O,,"CD-1 mouse, plasma","oral, dose not given, efficacy dose",,fAUC/MIC ratio,0.474
CCc1cc(C(=O)NC)c2nccc(N3CCc4c(cc(Cn5ccnc5)cc4-c4cn(C)nc4C(F)(F)F)C3=O)c2c1,,Sprague Dawley rats,"oral, 100 mg/kg twice daily, 7 days",baseline: vehicle,reticulocyte percentage change,-39.5%
